Experimental data collected from several papers.
A part holds a random share of what one study measured.
Sequence of UniProt P42679 (whole entry, looked up): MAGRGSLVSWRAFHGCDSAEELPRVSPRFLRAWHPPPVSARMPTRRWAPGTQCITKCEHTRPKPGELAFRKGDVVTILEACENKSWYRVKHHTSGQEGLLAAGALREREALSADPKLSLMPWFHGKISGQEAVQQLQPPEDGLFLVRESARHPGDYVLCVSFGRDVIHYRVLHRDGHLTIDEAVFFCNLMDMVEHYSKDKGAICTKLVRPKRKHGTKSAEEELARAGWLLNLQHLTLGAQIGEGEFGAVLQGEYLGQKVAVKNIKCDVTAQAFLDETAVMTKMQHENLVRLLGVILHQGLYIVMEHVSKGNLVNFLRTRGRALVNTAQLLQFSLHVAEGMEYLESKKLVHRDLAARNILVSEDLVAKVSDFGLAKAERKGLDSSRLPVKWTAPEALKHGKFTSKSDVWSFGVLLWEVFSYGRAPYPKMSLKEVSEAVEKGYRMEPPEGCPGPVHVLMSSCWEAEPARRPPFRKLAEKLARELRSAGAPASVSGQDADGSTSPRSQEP
Sequence of UniProt P15056 (whole entry, unmodified, looked up): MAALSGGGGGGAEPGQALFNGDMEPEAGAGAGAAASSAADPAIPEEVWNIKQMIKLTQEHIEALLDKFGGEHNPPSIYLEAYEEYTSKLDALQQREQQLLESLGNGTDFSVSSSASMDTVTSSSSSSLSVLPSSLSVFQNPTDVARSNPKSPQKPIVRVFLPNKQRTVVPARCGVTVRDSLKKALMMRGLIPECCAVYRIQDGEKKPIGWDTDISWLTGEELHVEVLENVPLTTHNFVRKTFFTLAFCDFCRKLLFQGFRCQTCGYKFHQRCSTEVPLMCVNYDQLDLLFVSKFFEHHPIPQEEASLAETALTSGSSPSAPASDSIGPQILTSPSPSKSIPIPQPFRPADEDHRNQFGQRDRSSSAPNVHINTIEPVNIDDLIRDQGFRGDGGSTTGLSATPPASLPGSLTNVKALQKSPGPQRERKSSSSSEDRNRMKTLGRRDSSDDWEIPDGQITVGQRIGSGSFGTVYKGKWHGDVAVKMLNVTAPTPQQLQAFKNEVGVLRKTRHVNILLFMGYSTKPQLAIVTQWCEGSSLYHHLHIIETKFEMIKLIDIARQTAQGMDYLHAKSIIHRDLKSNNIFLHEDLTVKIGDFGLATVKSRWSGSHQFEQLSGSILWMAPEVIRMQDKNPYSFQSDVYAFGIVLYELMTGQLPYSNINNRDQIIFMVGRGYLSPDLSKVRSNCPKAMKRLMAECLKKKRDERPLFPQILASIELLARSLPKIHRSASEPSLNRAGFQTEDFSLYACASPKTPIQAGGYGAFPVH
Sequence of UniProt P29317 (whole entry, looked up): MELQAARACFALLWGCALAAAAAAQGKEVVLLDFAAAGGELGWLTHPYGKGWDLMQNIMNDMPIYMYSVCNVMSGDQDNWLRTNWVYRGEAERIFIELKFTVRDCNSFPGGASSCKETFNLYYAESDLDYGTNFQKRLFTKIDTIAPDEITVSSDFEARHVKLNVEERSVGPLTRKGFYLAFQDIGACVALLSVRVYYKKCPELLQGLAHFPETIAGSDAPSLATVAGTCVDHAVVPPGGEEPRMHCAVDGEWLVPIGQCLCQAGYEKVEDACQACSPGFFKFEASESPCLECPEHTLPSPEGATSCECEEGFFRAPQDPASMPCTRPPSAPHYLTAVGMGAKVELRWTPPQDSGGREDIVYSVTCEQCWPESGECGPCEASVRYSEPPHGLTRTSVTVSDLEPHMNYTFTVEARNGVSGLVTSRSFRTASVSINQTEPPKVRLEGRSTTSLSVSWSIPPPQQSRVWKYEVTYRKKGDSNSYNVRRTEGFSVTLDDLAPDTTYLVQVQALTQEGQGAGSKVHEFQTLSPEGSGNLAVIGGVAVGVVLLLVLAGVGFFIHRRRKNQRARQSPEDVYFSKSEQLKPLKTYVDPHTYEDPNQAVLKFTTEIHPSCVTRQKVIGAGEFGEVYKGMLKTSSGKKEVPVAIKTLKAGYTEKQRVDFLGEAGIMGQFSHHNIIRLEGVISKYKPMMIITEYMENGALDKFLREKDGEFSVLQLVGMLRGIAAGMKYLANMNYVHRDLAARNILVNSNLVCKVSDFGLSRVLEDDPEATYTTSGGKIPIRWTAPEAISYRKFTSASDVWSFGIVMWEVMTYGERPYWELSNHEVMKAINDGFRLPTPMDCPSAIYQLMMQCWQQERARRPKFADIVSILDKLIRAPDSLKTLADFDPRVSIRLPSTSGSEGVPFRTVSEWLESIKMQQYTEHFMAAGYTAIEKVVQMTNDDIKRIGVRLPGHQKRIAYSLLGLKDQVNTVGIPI
Sequence of UniProt Q16659 (whole entry, looked up): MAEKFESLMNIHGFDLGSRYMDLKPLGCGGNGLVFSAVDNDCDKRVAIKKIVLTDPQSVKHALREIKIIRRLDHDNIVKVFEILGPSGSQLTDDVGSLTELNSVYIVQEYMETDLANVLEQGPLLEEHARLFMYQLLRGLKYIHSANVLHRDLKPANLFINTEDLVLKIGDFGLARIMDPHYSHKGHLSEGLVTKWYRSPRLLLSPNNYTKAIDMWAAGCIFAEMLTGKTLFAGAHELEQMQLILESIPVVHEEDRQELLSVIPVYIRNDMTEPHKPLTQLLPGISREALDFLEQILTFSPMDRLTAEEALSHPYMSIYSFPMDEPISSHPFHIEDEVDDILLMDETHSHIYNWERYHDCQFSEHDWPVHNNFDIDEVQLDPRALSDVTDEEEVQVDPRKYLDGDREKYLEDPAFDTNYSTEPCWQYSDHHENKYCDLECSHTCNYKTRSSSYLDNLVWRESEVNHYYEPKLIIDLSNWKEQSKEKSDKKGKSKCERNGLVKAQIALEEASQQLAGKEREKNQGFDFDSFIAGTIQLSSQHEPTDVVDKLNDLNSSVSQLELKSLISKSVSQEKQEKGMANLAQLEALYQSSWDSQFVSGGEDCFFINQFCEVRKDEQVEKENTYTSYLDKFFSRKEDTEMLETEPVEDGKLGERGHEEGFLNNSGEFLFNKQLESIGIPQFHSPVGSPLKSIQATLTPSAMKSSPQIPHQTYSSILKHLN
Sequence of UniProt Q06418 (whole entry, looked up): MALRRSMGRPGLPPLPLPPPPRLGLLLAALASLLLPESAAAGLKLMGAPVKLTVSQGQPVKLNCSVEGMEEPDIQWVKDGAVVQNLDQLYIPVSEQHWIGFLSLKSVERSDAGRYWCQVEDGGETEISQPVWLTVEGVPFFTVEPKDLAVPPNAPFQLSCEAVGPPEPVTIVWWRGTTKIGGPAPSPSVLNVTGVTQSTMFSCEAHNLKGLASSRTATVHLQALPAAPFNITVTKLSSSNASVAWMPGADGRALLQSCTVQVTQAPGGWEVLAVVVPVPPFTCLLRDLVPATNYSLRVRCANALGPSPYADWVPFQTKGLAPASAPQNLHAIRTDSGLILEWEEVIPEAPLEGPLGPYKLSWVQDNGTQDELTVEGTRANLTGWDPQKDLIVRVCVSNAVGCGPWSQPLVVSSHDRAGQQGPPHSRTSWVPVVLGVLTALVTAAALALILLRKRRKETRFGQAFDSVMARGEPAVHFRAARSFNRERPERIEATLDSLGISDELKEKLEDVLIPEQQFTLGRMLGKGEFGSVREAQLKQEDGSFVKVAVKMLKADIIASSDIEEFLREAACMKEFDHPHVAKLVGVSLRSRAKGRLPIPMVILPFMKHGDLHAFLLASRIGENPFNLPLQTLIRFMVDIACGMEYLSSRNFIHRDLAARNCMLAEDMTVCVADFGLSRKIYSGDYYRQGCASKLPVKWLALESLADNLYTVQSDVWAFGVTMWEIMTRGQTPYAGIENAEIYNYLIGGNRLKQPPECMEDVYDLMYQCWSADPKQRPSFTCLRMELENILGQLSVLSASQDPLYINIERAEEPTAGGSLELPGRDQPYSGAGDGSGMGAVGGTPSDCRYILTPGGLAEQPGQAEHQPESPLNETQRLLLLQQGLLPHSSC
Sequence of UniProt P21127 (whole entry, looked up): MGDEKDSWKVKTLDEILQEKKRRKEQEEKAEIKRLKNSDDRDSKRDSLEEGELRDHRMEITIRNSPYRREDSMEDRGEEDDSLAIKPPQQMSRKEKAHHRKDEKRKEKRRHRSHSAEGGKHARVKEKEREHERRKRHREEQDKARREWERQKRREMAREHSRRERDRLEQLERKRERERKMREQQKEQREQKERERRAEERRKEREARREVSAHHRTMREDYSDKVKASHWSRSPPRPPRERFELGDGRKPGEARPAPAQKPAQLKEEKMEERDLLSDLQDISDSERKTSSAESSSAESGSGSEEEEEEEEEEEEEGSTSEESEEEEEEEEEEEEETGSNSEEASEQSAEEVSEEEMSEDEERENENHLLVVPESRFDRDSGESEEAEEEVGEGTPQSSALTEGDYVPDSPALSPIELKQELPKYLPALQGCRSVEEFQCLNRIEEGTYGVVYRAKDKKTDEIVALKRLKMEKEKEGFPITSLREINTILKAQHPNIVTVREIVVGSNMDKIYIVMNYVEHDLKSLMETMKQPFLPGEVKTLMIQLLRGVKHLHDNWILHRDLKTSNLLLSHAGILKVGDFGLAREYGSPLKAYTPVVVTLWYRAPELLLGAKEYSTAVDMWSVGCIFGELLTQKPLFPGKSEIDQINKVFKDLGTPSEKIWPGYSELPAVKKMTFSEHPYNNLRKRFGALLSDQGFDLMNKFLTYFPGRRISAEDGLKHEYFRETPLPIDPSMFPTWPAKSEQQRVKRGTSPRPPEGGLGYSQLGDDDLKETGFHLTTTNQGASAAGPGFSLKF

Series 1
Target: Transcription factor SOX-2, HMG box (SOX2, Homo sapiens, UniProt P48431, residues 37-118)
Sequence of UniProt P48431 (37-118, looked up): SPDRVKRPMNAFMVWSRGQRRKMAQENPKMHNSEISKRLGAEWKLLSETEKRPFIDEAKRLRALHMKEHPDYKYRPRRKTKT
Technique: protein-binding microarray
Form: hairpin DNA
Matrix: in vitro
Tested at: not given
Setting: whole hairpin DNA, median over replicate spots
Reference: not given
Direction: higher = stronger binding
Constant ends, left off below: GCAGGCC … GGCCTGCACACTCTTTCCCTACACGAC
Strand	median fluorescence [a.u.]
AACAATGGGCCTCCTGGCCCATTGTT	5350
CACAATGTGCCTCCTGGCACATTGTG	3150
CACAATCAGCCTCCTGGCTGATTGTG (5mC at 14)	2880
CAAAATGGGCCTCCTGGCCCATTTTG	2500
CACAATCTGCCTCCTGGCAGATTGTG (5mC at 14)	2770
CACCTTGGGCCTCCTGGCCCAAGGTG (5mC at 11)	2350
CACTATGGGCCTCCTGGCCCATAGTG	2510
CGCAATGGGCCTCCTGGCCCATTGCG	2570

Series 2
Target: TAR DNA-binding protein 43, full length, His tag (TARDBP, Homo sapiens, UniProt Q13148, residues 1-414)
Technique: RNA Bind-n-Seq
Form: RNA
Matrix: in vitro
Tested at: 20 nM
Setting: 6-mer, flanks averaged, single round
With: 150 mM LiCl
Reference: input library
Direction: higher = stronger binding
Strand	6-mer enrichment (R)
UAGAAG	0.966
UCUGAU	0.839
GUGCCA	1.01
AUAAUU	1.1
GGGCCA	1.04
CUCAAG	0.811
CAUGAG	0.943
UCGAAA	0.784

Series 3
Target: Ephrin type-B receptor 2 (EPHB2, Homo sapiens, UniProt P29323)
Effect on: enzyme activity
Mode: inhibitor
Tested at: 0.5 µM
Reference: control
Compound	remaining activity
NCCNc1ncc(C(N)=O)c(Nc2cccc(C(F)(F)F)c2)n1	98.5%
COc1ccc(CNC(=O)Nc2ncc([N+](=O)[O-])s2)cc1	88.4%
Oc1ccc(-c2nc(-c3ccncc3)c(-c3ccc(F)cc3)[nH]2)cc1	105%
Nc1[nH]nc2nc3ccccc3nc12	103%
O=C1NC(=O)C(c2cn(CCCO)c3ncccc23)=C1c1cnccn1	78.3%
COc1ccc(C(=O)Nc2sc3c(c2C(N)=O)CCCC3)cc1OC	73.5%
O=S(=O)(c1cccc2cnccc12)N1CCCNCC1	83.2%
CC(C)[C@H](CO)Nc1nc(Nc2cc(N)cc(Cl)c2)c2ncn(C(C)C)c2n1	73.6%
COc1cc2ncnc(Nc3ccc(Oc4ccccc4)cc3)c2cc1OC	99.7%
O=C(O)c1ccc2c3c1cccc3c(=O)n1c3ccccc3nc21	104%
CCOC(=O)c1c(C)[nH]c(/C=C2\C(=O)Nc3ccccc32)c1C	95.4%
Cc1cccc(-c2[nH]c(C(C)(C)C)nc2-c2ccc3c(c2)OCO3)n1	93%
Cn1c2ccccc2c2c3c(c4c5ccccc5n(CCC#N)c4c21)CNC3=O	77.7%

Series 4
SMILES: CNC(=O)Nc1ccc2c(c1)CC[C@@]21OC(=O)N(CC(=O)N(Cc2ccc(F)cc2)[C@@H](C)C(F)(F)F)C1=O
Effect on: cell-free assay
Technique: competition with immobilised ligand
Tested at: 1 µM
target	remaining binding [%]
Mitogen-activated protein kinase 6 (MAPK6, Homo sapiens, UniProt Q16659)	100
Ribosomal protein S6 kinase alpha-5, C-terminal kinase domain (RPS6KA5, Homo sapiens, UniProt O75582)	63
Megakaryocyte-associated tyrosine-protein kinase (MATK, Homo sapiens, UniProt P42679)	71
Protein-tyrosine kinase 6 (PTK6, Homo sapiens, UniProt Q13882)	87
Cyclin-dependent kinase 11B (CDK11B, Homo sapiens, UniProt P21127)	84
Tyrosine-protein kinase receptor TYRO3 (TYRO3, Homo sapiens, UniProt Q06418)	81
Receptor-type tyrosine-protein kinase FLT3 (FLT3, Homo sapiens, UniProt P36888, R834Q)	92
cAMP-dependent protein kinase catalytic subunit alpha (PRKACA, Homo sapiens, UniProt P17612)	100
Ephrin type-A receptor 2 (EPHA2, Homo sapiens, UniProt P29317)	76
Macrophage colony-stimulating factor 1 receptor (CSF1R, Homo sapiens, UniProt P07333)	99
Mitogen-activated protein kinase 3 (MAPK3, Homo sapiens, UniProt P27361)	92
Ephrin type-B receptor 6 (EPHB6, Homo sapiens, UniProt O15197)	96
Phosphatidylinositol 4,5-bisphosphate 3-kinase catalytic subunit beta isoform (PIK3CB, Homo sapiens, UniProt P42338)	94
Serine/threonine-protein kinase B-raf (BRAF, Homo sapiens, UniProt P15056, V600E)	100

Some of these lines once more (series 4):
target	remaining binding [%]
Megakaryocyte-associated tyrosine-protein kinase (MATK, Homo sapiens, UniProt P42679)	71
Serine/threonine-protein kinase B-raf (BRAF, Homo sapiens, UniProt P15056, V600E)	100
Protein-tyrosine kinase 6 (PTK6, Homo sapiens, UniProt Q13882)	87
Phosphatidylinositol 4,5-bisphosphate 3-kinase catalytic subunit beta isoform (PIK3CB, Homo sapiens, UniProt P42338)	94
cAMP-dependent protein kinase catalytic subunit alpha (PRKACA, Homo sapiens, UniProt P17612)	100
Macrophage colony-stimulating factor 1 receptor (CSF1R, Homo sapiens, UniProt P07333)	99
